Assay results pooled from the literature.
Lines come from different studies, so protocols differ. Values joined by “and” are separate records of one study, mostly repeats; a detail may differ. Numbers after ± are the reported error.
IDE: Insulin-degrading enzyme (IDE, Homo sapiens, UniProt P14735)

SMILES | tested on | assay | system | conditions | scale | measurement | value
CN1C[C@H](COc2nccc3c(NCc4ccco4)cc(Cl)nc23)OC1=O |  |  | rabbit NZW female, isolated Langendorff heart | 3 µM, 15 min |  | left ventricular peak systolic pressure | 110 mmHg
CNC(=O)c1ccc(-c2cnc3ncc(Cc4ccc5ncccc5c4)n3n2)cc1F |  |  | human mild hepatic impairment NCI | oral, 200 mg single dose, geometric mean |  | AUC(0-t) | 6590 ng·h/mL
Nc1ccn([C@@H]2O[C@H](CO)[C@@H](O)C2(F)F)c(=O)n1 |  |  | Sprague-Dawley rat, male, plasma | intraperitoneal, 5 mg/kg |  | Vz/F | 3.33 ± 0.072 (mg/kg)/(µg/mL)
OB1NN=Cc2ccccc21 |  | stability, UPLC-MS | diluted serum | 1 day, 37 °C | higher = more compound remaining | peak area | 311000 a.u. and 304000 a.u. and 307000 a.u.
Cc1ccccc1-c1ccc([C@H]2[C@@H](CO)N3CCCCN(C(=O)Nc4ccccc4)C[C@@H]23)cc1 | IDE | enzyme activity, inhibitor, fluorogenic kinetic |  | together with: Mca-RPPGFSAFK(Dnp)-OH substrate |  | EC50 | 2.9 µM
COc1ccc([C@@H](O)c2cc(-c3ncnc4cc(N5CCOCC5)ccc34)c(F)cc2Cl)nn1 |  |  | locally advanced rectal cancer patients | 100 mg, together with: capecitabine and radiotherapy |  | nausea TEAE incidence | 67%
C=CC(=O)Nc1cc(Nc2nccc(-c3c[nH]c4ccccc34)n2)c(OC)cc1N(C)CCN(C)C |  | population PK model | human | dose not given |  | apparent metabolite volume Vm/F | 151 L
COc1cccc(OC)c1-c1cc(C(=O)NC2(C(=O)O)C3CC4CC(C3)CC2C4)nn1-c1ccc(C(=O)N(C)CCCN(C)CCCN(C)C(=O)CN2CCN(CC(=O)[O-])CCN(CC(=O)[O-])CCN(CC(=O)[O-])CC2)cc1C(C)C.[177Lu+3] (stereo not shown) |  |  | mouse HT-29 xenograft | 168 h, biodistribution | baseline: tumour over small intestine | tumour-to-small intestine ratio | 34
Cc1cc(C)c(CNC(=O)c2cc(Cl)c3c(c2C)O[C@@](C)([C@H]2CC[C@H](N(C)C)CC2)O3)c(=O)[nH]1 |  |  | relapsed/refractory NHL patients | oral, 200 mg once daily, onset after cycle 1 day 1 |  | grade ≥3 adverse event Sepsis | 4.2%
CNC(=O)c1cc(Oc2ccc(NC(=O)Nc3cc(C(C)(C)C)nn3-c3ccc4ncccc4c3)c(F)c2)ccn1 |  | refers to: worst grade 1 | human | oral, dose not given, cycles 1 and 2, Low AUC(0-4 h) subgroup |  | patients with any AE of special interest | 33%
O=C(N[C@@H](CSCc1ccc([N+](=O)[O-])cc1)C(=O)NO)c1ccccc1 |  |  | male ICR mice | oral, 200 mg/kg, 28 days, OECD 407 subacute toxicity |  | serum glutathione | no effect
Cc1c(-c2ccc(N3CCc4cccc(C(=O)Nc5nc6ccccc6s5)c4C3)nc2C(=O)O)cnn1CC12CC3(C)CC(C)(C1)CC(OCCNCC[C@H](O)CO)(C3)C2 |  |  | beagle dog, male, anaesthetised | intravenous infusion, 0.01 mg/kg/min, 10 min | baseline: baseline | mean arterial pressure change | -1 mmHg
CN(C(=O)n1cnc(-c2cccnc2)c1)[C@H]1CC[C@H](O)CC1 |  |  | cynomolgus monkeys, plasma | oral, 1.0 mg/kg |  | Cmax | 30.6 ng/mL
COc1cccc(-c2n[nH]c(SCc3ccccn3)n2)c1OC |  |  | Sprague-Dawley rats, both sexes | oral dietary, 10 mg/kg/day, day 7, 3 h |  | plasma concentration | 162 ng/mL
Cc1ccc(C(=O)N(CCCN)C(c2nc3snc(C)c3c(=O)n2Cc2ccccc2)C(C)C)cc1 (stereo not shown) |  |  | human patients | intravenous, 4 mg/day |  | grade ≥3 hypokalemia patients | 0%
CC[C@H](C)CCCCC(=O)N[C@@H](CCN)C(=O)N[C@H](C(=O)N[C@@H](CCN)C(=O)N[C@H]1CCNC(=O)[C@H]([C@@H](C)O)NC(=O)[C@H](CCN)NC(=O)[C@H](CCN)NC(=O)[C@H](CC(C)C)NC(=O)[C@@H](Cc2ccccc2)NC(=O)[C@H](CCN)NC1=O)[C@@H](C)O |  |  | long-term haemodialysis patients, plasma | IV, 0.75 mg/kg | baseline: healthy subjects | clearance reduction | 42%
O=C(OC(C(F)(F)F)C(F)(F)F)N1CCN(Cc2cccc(Oc3ccccc3)c2)CC1 |  | PET blocking study | rhesus monkey, brain CB | 0.3 mg/kg, compound pretreatment, together with: [18F]T-401 tracer |  | Ktrans | 0.0306 min⁻¹
Cc1ccc([C@@H]2O[C@H](CO)[C@@H](O)[C@H](O)[C@H]2O)cc1Cc1ccc(-c2ccc(F)cc2)s1 |  |  | Japanese type 2 diabetes patients | 400 mg, day 6, 24 h urine collection | baseline: baseline | urinary calcium excretion change | -41.2 mg
C=CCN1CC(=O)N2[C@@H](Cc3ccc(O)cc3F)C(=O)N(Cc3cccc(N4CC(N5CCN(CC)CC5)C4)n3)C[C@@H]2N1C(=O)NCc1ccccc1 |  | refers to: Vomiting | advanced solid tumour patients | oral, 100 mg twice daily, expansion part, grade ≥3 |  | treatment-related adverse events | 0%
COc1cc2c3cc1Oc1c(OC)c(OC)cc4c1[C@@H](Cc1ccc(O)c(c1)Oc1ccc(cc1)C[C@@H]3N(C)CC2)N(C)CC4 |  |  | mouse plasma, K3EDTA | 1 h, 25-26 °C, room temperature |  | remaining compound | 98%
CCc1c(C)nc(-c2ccc(Cl)s2)nc1Nc1ccc(CC(=O)O)cc1 |  |  | mice, chronic ethanol plus binge | intraperitoneal, 0.3 mg/kg daily, ethanol diet 4 weeks, dosed last two | baseline: vehicle | serum urea nitrogen | no effect
CCn1cc(C(=O)N2CCOCC2)c(=O)c2cc(NC3Cc4ccccc4C3)cnc21 |  |  | human, fasted | oral suspension, 600 mg single dose, median |  | Tmax | 2 h
COc1nnc2ccc(N3CCC(c4ccc(OCCN5CCN(C)C(=O)[C@H]5C)cc4)CC3)nn12 |  |  | human, plasma | oral, 10 mg once daily, single dose, monotherapy |  | AUClast | 0.309 µM·h

SMILES | tested on | assay | system | conditions | scale | measurement | value
N#Cc1ccc2c(c1)[C@H]1CCCN(C(=O)c3ccc4[nH]cnc4c3)[C@H]1C2 |  |  | human females | 360 mg, day 15 |  | SHBG level | 34.7 nmol/L
Cc1ccc(Sc2ccccc2N2CCNCC2)c(C)c1 |  | refers to: blood uric acid increased | healthy adult women | oral, 10 mg daily, 12 days |  | participants with TEAE | 0%
Cc1nc(-c2cnc(NC(C)C)n(C)c2=O)ccc1Oc1ccnc(-c2cnn(C)c2)c1 |  |  | DBA/1 mouse, female, plasma | oral, 7.5 mg/kg, single dose |  | apparent clearance | 1.5 mL/min/kg
O=C(O)CCCOc1ccc([18F])cc1-c1cc(-c2ccccc2C(F)(F)F)n(-c2ccccc2)n1 |  | gamma counting | male ddY mice, spleen | intravenous, 2.1 MBq, 30 min |  | radioactivity uptake | 0.18 ± 0.03 SUV
O=C(Nc1cnccc1Cl)N1CCN(Cc2ccc3c(c2)OC(F)(F)O3)CC1 |  | multiple ascending dose | young women | 100 mg, treatment-emergent adverse events |  | postural dizziness incidence | 0%
CCCCCN(C)CCC(O)(P(=O)(O)O)P(=O)(O)OP(=O)(O)OC[C@H]1O[C@@H](n2ccc(N)nc2=O)C(F)(F)[C@@H]1O (stereo partly shown) |  |  | buffer | concentration not given, pH 2.7, 22 °C |  | hydrolysis half-life | 27.7 h
N[C@@H](C[18F])C(=O)O |  | PET imaging | female athymic nude mice, U-87 MG xenograft | intravenous, 15 min | baseline: tumour over muscle | tumour-to-muscle ratio | 1.77 ± 0.44
Cc1cccc(CNC(=O)c2cn(CCNC(=O)c3ccccc3Sc3c([N+](=O)[O-])ncn3C)c3cc4c(cc3c2=O)OC(F)(F)O4)n1 |  |  | Sprague-Dawley rat, male, plasma | intramuscular, 10 mg/kg of parent drug |  | bioavailability | 30.2 ± 7.3%
CCc1nn(C)c2nc(-c3ccc(C(=O)O)cc3)nc(NCc3ccc(F)cc3)c12 |  |  | NSG mice | dose not given, day 6 of treatment |  | body weight | 21 g and 22.5 g and 20.8 g
CNCc1ccc(-c2[nH]c3cc(F)cc4c3c2CCNC4=O)cc1 |  |  | patients | oral, 600 mg twice daily, grade 5 |  | abdominal distension incidence | 0%
CCc1nc(C(N)=O)c(Nc2ccc(N3CCC(N4CCN(C)CC4)CC3)c(OC)c2)nc1NC1CCOCC1 |  |  | processed mouse plasma | 425 ng/mL, 24 h, 4 °C |  | re-injection stability accuracy | 102%
CC(C)(C(=O)N1CCOc2c(C#N)cncc2C1)C(F)F |  | refers to: Insomnia | human | oral, 20 mg twice daily, 14 days, multiple ascending dose |  | subjects with adverse event | 0%
O=S(=O)(c1ccc(-c2ccc3nccc(Nc4ccncn4)c3c2)cc1)N1CCOCC1 |  |  | female BALB/c mouse | intraperitoneal, 10 mg/kg | baseline: brain over plasma | tissue/plasma ratio | 0.04
N[C@@H](CC(=O)O)C(=O)OC(C(=O)O)c1ccccc1[N+](=O)[O-].O=C(O)C(F)(F)F (mixture of isomers) |  | 1H NMR, dark | 50 mM sodium phosphate | concentration not given, pH 7.0, room temperature, 12.5% DMSO-d6 |  | hydrolysis half-life, A isomer | 13.9 ± 0.2 h
C[C@H]1CN(C(=O)CC#N)[C@]12CCN(c1ncnc3[nH]ccc13)C2 |  |  | healthy human | oral, 3 mg single |  | subjects with Nausea | 0%
CN[C@@H](C)C(=O)N[C@H]1CN(S(=O)(=O)c2cccc(S(=O)(=O)N3CC[C@H]4CC[C@@H](C(=O)NC(c5ccccc5)c5ccccc5)N4C(=O)[C@@H](NC(=O)[C@H](C)NC)C3)c2)CC[C@H]2CC[C@@H](C(=O)NC(c3ccccc3)c3ccccc3)N2C1=O |  | LC-MS/MS, noncompartmental | human, plasma | 30 mg, cycle 1 day 1 |  | Vss | 23.4 ± 0.573 L
C[C@@H](O)CCOC(=O)C[C@@H](C)O |  |  | human | oral drink, dose not given, 120 min post dose, mean |  | heart rate | 75 beats/min
CNC(=O)c1ccc(-c2cnc3ncc(Cc4ccc5ncccc5c4)n3n2)cc1F |  |  | Japanese patients | oral, 400 mg, any grade |  | γGT increased patients | 5%
NC1(C(=O)N[C@@H](CCO)c2ccc(Cl)cc2)CCN(c2nc[nH]c3nccc2-3)CC1 |  |  | metastatic CRPC patients | 480 mg b.i.d., grade 3 to 4, treatment-related, together with: enzalutamide 160 mg daily |  | incidence of Stomatitis | 0%
O=C(Nc1nc2cccc(-c3ccc(CN4CCS(=O)(=O)CC4)cc3)n2n1)C1CC1 |  | refers to: vascular disorders | rheumatoid arthritis patients | oral, 150 mg once daily, 4 weeks, any relatedness |  | treatment-emergent adverse events | 0%
CCc1c(-c2ccccc2)c(-c2ccccc2)nn1-c1ccccc1-c1cccc(OCC(=O)O)c1 |  |  | Sprague-Dawley rat | intravenous, dose not given |  | Clast | 21.6 ng/mL and 12.2 ng/mL and 7.2 ng/mL
Cc1cc(NC2CCN(C(=O)OC3CCN(C(=O)/C=C/CN(C)C)C3)CC2)n2ncc(C(C)C)c2n1 (stereo not shown) |  | Phase I dose escalation CTCAE v4.0, refers to: Anemia | patients with advanced solid tumours | dose not given, all dose schedules any grade |  | patients with adverse event | 28%
Cc1cccc(-c2ccc([C@@H]3[C@@H](CO)N4CCCCN(CCC(F)(F)F)C[C@@H]34)cc2)c1 | IDE | enzyme activity, inhibitor, fluorogenic kinetic |  | together with: Mca-RPPGFSAFK(Dnp)-OH substrate |  | EC50 | 71.5 µM

Excerpt of the above:
SMILES | tested on | assay | system | conditions | scale | measurement | value
Cc1ccc([C@@H]2O[C@H](CO)[C@@H](O)[C@H](O)[C@H]2O)cc1Cc1ccc(-c2ccc(F)cc2)s1 |  |  | Japanese type 2 diabetes patients | 400 mg, day 6, 24 h urine collection | baseline: baseline | urinary calcium excretion change | -41.2 mg
C=CCN1CC(=O)N2[C@@H](Cc3ccc(O)cc3F)C(=O)N(Cc3cccc(N4CC(N5CCN(CC)CC5)C4)n3)C[C@@H]2N1C(=O)NCc1ccccc1 |  | refers to: Vomiting | advanced solid tumour patients | oral, 100 mg twice daily, expansion part, grade ≥3 |  | treatment-related adverse events | 0%
COc1cc2c3cc1Oc1c(OC)c(OC)cc4c1[C@@H](Cc1ccc(O)c(c1)Oc1ccc(cc1)C[C@@H]3N(C)CC2)N(C)CC4 |  |  | mouse plasma, K3EDTA | 1 h, 25-26 °C, room temperature |  | remaining compound | 98%
CCc1c(C)nc(-c2ccc(Cl)s2)nc1Nc1ccc(CC(=O)O)cc1 |  |  | mice, chronic ethanol plus binge | intraperitoneal, 0.3 mg/kg daily, ethanol diet 4 weeks, dosed last two | baseline: vehicle | serum urea nitrogen | no effect
CCn1cc(C(=O)N2CCOCC2)c(=O)c2cc(NC3Cc4ccccc4C3)cnc21 |  |  | human, fasted | oral suspension, 600 mg single dose, median |  | Tmax | 2 h
COc1nnc2ccc(N3CCC(c4ccc(OCCN5CCN(C)C(=O)[C@H]5C)cc4)CC3)nn12 |  |  | human, plasma | oral, 10 mg once daily, single dose, monotherapy |  | AUClast | 0.309 µM·h
